Measured values of several laboratories.
Parts stem from different laboratories: compare values within a part only. “And” joins repeats or separate records; there may be more than shown. Substitutions count along the parent as printed.

Series 1
Target: CCND2, cyclin fold, Cln2 fusion (human)
Method: yeast growth competition, sequencing
Medium: yeast
Setting: weak parent motif
Relative to: not given
Reading: higher = stronger binding
Parent: viral docking peptide; PTARRRLLHDLDT; partner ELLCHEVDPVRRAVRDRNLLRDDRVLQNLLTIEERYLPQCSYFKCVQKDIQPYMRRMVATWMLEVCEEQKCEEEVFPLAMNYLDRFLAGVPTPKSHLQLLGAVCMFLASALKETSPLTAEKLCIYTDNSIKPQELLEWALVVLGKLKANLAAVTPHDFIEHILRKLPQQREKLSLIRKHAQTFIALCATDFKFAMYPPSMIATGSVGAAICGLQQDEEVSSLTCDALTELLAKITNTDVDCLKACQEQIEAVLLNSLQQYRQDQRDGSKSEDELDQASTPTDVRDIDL
| Variant | normalised enrichment score |
| --- | --- |
| P1A | 0.264 |
| L11A | 0.133 |
| R4A | 0.0134 |
| T2A | 0.0424 |
| R5A R6A L7A L8A | 0.059 |
| H9A | 0.321 |
| R6A | 0.444 |
| R5K L8F | 0.0874 |

Series 2
Target: chymotrypsin
Effect on: enzyme activity
Action: inhibitor
Tested at: 10 µM
Setting: with DTT
| Compound | inhibition |
| --- | --- |
| COc1cc(-c2ccc(/N=N/c3ccc4c(S(=O)(=O)O)cc(S(=O)(=O)O)c(N)c4c3O)c(OC)c2)ccc1/N=N/c1ccc2c(S(=O)(=O)O)cc(S(=O)(=O)O)c(N)c2c1O | 4.7% |
| O=C1C=CC(=O)c2c(O)cccc21 | 14.9% |
| O=C(O)C1=CC(=C(c2ccc(O)c(C(=O)O)c2)c2ccc(O)c(C(=O)O)c2)C=CC1=O | 6.2% |
| CCOC(=O)c1c(N)sc(-c2ccccc2)c1C | 5.8% |
| C=C1C(=O)O[C@H]2[C@H]1CC/C(C)=C/CC[C@@]1(C)O[C@@H]21 | -1% |
| O=C1C(Cl)=C(Cl)C(=O)C(Cl)=C1Cl | 10.1% |

Series 3
Compound: Cn1cncc1[C@@](O)(COc1ccc(C#N)cc1-c1ccc(OC(F)(F)F)cc1)c1ccc(C#N)cc1
Effect on: ligand displacement
Tested at: 10 µM
| target | inhibition [%] |
| --- | --- |
| SLC6A4 (Homo sapiens, UniProt P31645) | -7.91 |
| HRH1 (Homo sapiens, UniProt P35367) | 43.5 |
| TMEM97 (Homo sapiens, UniProt Q5BJF2) | 37.8 |
| OPRD1 (Homo sapiens, UniProt P41143) | 2.4 |
| DRD4 (Homo sapiens, UniProt P21917) | 6.23 |
| ADRA2A (Homo sapiens, UniProt P08913) | 3.37 |
| ADRA1B (Homo sapiens, UniProt P35368) | 5.97 |
| HTR7 (Homo sapiens, UniProt P34969) | 15 |
| SIGMAR1 (Homo sapiens, UniProt Q99720) | 92.3 |
| ADRA2C (Homo sapiens, UniProt P18825) | 8.51 |
| CHRM5 (Homo sapiens, UniProt P08912) | 1.23 |
| HRH4 (Homo sapiens, UniProt Q9H3N8) | -3.79 |
| OPRM1 (Homo sapiens, UniProt P35372) | -3.25 |
| ADRA1D (Homo sapiens, UniProt P25100) | -18.6 |
| SLC6A2 (Homo sapiens, UniProt P23975) | 5.18 |
| DRD5 (Homo sapiens, UniProt P21918) | -12.4 |
| HTR6 (Homo sapiens, UniProt P50406) | 14.2 |

Other studies, line by line
| SMILES | tested on | test | system | conditions | scale | measurement | value |
| --- | --- | --- | --- | --- | --- | --- | --- |
| CN1C(=O)CCS(=O)(=O)C1c1ccc(Cl)cc1 (stereo not shown) | HaCaT |  |  | 100 µM, 60 h |  | viability | 149% |
| CC#CC(=O)N1CCC[C@H]1c1nc(-c2ccc(C(=O)Nc3ccccn3)cc2)c2c(N)nccn12 | DYRK1B (Homo sapiens, UniProt Q9Y463) | cell-free assay, inhibitor |  | 1 µM |  | inhibition | 3% |
| COc1cc2c(cc1OC)[C@@H]1C(=O)c3ccc4oc(C(C)C)cc4c3O[C@@H]1CO2 |  |  | human, microsomes or S9 | 2 µM, 0.5 h |  | remaining compound | 5.75% |
| CN(C(=O)c1ccn2ncc(-c3ccc(C(N)=O)cc3)c2c1)c1ccc(C#N)cn1 | C. parvum PI4K Y907F | enzyme activity, inhibitor, ADP-Glo |  |  | relative to: mutant over wild type | fold IC50 shift | 0.66 and 0.92 |
| C=C(C)[C@H]1Cc2c(ccc3c2O[C@@H]2COc4cc(OC)c(OC)cc4[C@@H]2C3=O)O1 |  |  | human, microsomes or S9 | 2 µM, 0.5 h |  | remaining compound | 28.8% |
| CN[C@@H]1C[C@@H](c2ccc(Cl)c(Cl)c2)c2ccccc21 | mouse MPNST tumor cells | high-content nuclear imaging, refers to: cell number |  | 10 µM, 12 h, mean of 2 replicates | relative to: plate mean, higher = more cells | nuclei count | -4.76 z-score |

A few entries again (series 1):
| Variant | normalised enrichment score |
| --- | --- |
| L11A | 0.133 |
| R4A | 0.0134 |
| T2A | 0.0424 |
